# Measured values gathered from unrelated publications.
# Numbered parts are unrelated; each lists some results of a single study. ± marks the error that the study gave.
# Sequence of UniProt P10721 (whole entry, unmodified, looked up): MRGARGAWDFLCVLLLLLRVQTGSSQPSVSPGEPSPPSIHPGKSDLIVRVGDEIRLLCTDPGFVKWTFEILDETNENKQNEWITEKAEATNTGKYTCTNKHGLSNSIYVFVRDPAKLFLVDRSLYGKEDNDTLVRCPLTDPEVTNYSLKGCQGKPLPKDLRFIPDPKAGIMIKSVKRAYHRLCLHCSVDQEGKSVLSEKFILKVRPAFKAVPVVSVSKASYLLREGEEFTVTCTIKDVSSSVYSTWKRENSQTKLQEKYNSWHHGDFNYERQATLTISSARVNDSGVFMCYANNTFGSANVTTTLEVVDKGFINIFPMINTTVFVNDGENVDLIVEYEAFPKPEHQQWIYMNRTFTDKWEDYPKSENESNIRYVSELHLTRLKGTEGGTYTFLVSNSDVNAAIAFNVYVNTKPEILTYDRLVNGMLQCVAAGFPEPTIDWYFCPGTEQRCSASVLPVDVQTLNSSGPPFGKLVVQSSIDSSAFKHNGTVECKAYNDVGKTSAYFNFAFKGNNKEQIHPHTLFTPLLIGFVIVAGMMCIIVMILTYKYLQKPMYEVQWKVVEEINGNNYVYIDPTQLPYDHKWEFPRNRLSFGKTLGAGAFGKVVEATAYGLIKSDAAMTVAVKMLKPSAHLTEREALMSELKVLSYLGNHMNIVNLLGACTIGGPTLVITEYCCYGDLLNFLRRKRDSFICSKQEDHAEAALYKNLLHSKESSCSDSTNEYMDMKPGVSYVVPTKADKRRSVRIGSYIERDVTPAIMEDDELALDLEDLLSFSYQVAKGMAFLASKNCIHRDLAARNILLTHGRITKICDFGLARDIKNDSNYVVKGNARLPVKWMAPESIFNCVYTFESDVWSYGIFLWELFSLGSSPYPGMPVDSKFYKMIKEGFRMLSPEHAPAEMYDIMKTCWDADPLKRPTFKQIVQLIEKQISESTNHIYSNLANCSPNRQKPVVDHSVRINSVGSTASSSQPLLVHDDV
# Sequence of UniProt P51813 (whole entry, looked up): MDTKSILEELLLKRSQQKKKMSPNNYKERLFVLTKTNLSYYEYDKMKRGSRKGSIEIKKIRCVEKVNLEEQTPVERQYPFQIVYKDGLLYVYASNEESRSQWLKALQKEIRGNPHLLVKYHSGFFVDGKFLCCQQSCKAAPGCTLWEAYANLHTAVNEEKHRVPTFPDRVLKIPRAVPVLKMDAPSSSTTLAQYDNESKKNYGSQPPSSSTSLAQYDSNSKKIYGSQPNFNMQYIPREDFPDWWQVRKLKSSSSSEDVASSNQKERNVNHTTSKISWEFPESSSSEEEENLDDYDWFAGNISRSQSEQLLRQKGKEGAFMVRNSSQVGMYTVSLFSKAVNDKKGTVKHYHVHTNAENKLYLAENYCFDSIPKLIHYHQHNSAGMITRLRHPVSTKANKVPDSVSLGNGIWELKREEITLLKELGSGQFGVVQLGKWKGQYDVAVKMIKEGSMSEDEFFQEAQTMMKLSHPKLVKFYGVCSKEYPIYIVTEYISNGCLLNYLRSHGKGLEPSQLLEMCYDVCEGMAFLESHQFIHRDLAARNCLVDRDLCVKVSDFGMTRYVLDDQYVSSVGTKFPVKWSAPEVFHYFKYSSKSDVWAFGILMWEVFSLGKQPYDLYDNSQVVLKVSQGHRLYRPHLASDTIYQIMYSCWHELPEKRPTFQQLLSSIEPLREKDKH
# Sequence of UniProt Q7L7X3 (whole entry, looked up): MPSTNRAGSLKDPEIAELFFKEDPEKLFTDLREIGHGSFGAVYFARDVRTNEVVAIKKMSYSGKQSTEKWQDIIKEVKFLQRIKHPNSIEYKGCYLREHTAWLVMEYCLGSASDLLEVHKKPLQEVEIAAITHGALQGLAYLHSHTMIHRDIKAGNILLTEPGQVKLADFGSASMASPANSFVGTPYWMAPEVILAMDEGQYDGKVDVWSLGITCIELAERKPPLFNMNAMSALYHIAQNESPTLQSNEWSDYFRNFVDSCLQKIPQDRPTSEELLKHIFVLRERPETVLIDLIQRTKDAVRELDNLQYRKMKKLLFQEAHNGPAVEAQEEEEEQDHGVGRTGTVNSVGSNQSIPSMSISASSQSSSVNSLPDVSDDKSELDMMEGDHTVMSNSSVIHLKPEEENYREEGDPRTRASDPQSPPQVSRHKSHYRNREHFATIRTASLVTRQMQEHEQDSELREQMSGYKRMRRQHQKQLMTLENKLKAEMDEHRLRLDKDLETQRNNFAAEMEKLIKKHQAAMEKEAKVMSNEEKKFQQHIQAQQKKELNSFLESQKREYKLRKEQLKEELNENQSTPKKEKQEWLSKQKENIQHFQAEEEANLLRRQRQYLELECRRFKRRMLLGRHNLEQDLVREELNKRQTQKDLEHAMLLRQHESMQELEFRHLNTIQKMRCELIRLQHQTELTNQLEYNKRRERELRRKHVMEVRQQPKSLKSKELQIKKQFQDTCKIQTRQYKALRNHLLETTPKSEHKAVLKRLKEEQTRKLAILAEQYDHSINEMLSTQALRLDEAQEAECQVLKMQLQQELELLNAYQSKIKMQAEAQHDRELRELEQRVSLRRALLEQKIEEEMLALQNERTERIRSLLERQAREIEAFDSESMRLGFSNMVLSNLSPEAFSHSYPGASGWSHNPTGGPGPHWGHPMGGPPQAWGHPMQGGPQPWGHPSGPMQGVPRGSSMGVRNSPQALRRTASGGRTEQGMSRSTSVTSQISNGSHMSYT
# Sequence of UniProt Q9UQM7 (whole entry, looked up): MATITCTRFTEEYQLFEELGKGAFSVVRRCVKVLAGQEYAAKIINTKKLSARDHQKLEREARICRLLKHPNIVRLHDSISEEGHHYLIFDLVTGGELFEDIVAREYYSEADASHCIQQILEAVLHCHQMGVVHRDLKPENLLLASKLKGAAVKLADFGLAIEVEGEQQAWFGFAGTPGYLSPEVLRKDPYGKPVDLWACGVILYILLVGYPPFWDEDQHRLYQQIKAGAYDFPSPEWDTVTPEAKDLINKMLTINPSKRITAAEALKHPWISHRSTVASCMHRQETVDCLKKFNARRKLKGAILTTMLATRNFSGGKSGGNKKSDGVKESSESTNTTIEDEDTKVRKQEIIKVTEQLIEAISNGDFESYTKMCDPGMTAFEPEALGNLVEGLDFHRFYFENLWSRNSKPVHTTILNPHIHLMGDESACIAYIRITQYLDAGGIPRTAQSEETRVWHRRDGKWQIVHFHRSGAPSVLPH
# Sequence of UniProt Q05940 (whole entry, looked up): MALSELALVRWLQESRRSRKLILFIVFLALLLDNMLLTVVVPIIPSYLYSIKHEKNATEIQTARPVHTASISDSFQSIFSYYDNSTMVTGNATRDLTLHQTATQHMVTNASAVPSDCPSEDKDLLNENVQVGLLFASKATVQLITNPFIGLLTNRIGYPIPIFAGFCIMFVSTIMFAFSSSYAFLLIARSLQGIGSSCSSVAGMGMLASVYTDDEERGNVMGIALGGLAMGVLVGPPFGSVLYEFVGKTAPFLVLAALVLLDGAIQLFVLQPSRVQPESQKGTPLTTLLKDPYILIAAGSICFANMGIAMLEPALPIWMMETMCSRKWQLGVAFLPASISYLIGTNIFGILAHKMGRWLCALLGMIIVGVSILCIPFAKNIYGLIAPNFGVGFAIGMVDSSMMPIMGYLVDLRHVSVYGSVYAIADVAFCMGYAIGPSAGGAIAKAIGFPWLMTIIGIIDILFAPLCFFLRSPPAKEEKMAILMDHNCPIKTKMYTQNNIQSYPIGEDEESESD

# Series 1 — technique: KINOMEscan; tested at: 10 µM; reading: lower = stronger binding
# SMILES: COc1cc(C(=O)N2CCC(N3CCN(C)CC3)CC2)ccc1Nc1ncc2c(n1)N(C)c1ccccc1C(=O)N2C
target,binding (% of control) [%]
CDK4-cyclinD3,100
MRCKB,100
ABL1(E255K)-phosphorylated,80
YES,100
PKAC-beta,100
AMPK-alpha1,51
VEGFR2,84
ABL1(H396P)-nonphosphorylated,100
LOK,100
p38-delta,72

# Series 2 — Compound: CSc1cccnc1N1CCN(Cc2nc3ccccc3[nH]2)CC1; observed: cell-free assay; technique: competition with immobilised ligand; tested at: 1 µM
target,remaining binding [%]
"STK38 (Homo sapiens, UniProt Q15208)",88
"STK3 (Homo sapiens, UniProt Q13188)",87
"BMX (Homo sapiens, UniProt P51813)",100
"TAOK1 (Homo sapiens, UniProt Q7L7X3)",100
"KIT (Homo sapiens, UniProt P10721, A829P)",100
"ROCK1 (Homo sapiens, UniProt Q13464)",93
"RIPK1 (Homo sapiens, UniProt Q13546)",100
"KIT (Homo sapiens, UniProt P10721, L576P)",92
"FGFR2 (Homo sapiens, UniProt P21802)",100
"MAP2K7 (Homo sapiens, UniProt O14733)",92
"CAMK2A (Homo sapiens, UniProt Q9UQM7)",100
"MAP3K14 (Homo sapiens, UniProt Q99558)",100
"BRSK1 (Homo sapiens, UniProt Q8TDC3)",100
"Ribosomal protein S6 kinase alpha-4, C-terminal kinase domain (RPS6KA4, Homo sapiens, UniProt O75676)",73
"TNK1 (Homo sapiens, UniProt Q13470)",84
"EGFR (Homo sapiens, UniProt P00533, del752-759)",100
"PIK3C2B (Homo sapiens, UniProt O00750)",94
"NEK10 (Homo sapiens, UniProt Q6ZWH5)",78

# Series 3 — dose: dose not given; baseline: vehicle
# SMILES: CC(=O)N[C@@H](Cc1c[nH]c2ccccc12)C(=O)N[C@@H](CCC(=O)C=[N+]=[N-])C(=O)OC(C)C
assay,test system,log2 fold change
refers to: N-monomethylarginine,"mouse, EL4 tumour-bearing, EL4 tumour",0.317
refers to: 4-methyl-2-oxopentanoate,"mouse, EL4 tumour-bearing, EL4 tumour",1.45
refers to: gamma-tocotrienol,"mouse, EL4 tumour-bearing, EL4 tumour",-0.307
refers to: pantothenate,"mouse, EL4 tumour, tumour",-0.476
refers to: N-acetylglucosamine/N-acetylgalactosamine,"mouse, EL4 tumour-bearing, EL4 tumour",0.165
refers to: cysteine,"mouse, EL4 tumour-bearing, EL4 tumour",-0.401
refers to: arginine,"mouse, EL4 tumour-bearing, EL4 tumour",0.00778

# Series 4 — observed: enzyme activity; mode: inhibitor; tested at: 0.5 µM; baseline: control
# Target: Insulin receptor (INSR, Homo sapiens, UniProt P06213)
# Sequence of UniProt P06213 (whole entry, looked up): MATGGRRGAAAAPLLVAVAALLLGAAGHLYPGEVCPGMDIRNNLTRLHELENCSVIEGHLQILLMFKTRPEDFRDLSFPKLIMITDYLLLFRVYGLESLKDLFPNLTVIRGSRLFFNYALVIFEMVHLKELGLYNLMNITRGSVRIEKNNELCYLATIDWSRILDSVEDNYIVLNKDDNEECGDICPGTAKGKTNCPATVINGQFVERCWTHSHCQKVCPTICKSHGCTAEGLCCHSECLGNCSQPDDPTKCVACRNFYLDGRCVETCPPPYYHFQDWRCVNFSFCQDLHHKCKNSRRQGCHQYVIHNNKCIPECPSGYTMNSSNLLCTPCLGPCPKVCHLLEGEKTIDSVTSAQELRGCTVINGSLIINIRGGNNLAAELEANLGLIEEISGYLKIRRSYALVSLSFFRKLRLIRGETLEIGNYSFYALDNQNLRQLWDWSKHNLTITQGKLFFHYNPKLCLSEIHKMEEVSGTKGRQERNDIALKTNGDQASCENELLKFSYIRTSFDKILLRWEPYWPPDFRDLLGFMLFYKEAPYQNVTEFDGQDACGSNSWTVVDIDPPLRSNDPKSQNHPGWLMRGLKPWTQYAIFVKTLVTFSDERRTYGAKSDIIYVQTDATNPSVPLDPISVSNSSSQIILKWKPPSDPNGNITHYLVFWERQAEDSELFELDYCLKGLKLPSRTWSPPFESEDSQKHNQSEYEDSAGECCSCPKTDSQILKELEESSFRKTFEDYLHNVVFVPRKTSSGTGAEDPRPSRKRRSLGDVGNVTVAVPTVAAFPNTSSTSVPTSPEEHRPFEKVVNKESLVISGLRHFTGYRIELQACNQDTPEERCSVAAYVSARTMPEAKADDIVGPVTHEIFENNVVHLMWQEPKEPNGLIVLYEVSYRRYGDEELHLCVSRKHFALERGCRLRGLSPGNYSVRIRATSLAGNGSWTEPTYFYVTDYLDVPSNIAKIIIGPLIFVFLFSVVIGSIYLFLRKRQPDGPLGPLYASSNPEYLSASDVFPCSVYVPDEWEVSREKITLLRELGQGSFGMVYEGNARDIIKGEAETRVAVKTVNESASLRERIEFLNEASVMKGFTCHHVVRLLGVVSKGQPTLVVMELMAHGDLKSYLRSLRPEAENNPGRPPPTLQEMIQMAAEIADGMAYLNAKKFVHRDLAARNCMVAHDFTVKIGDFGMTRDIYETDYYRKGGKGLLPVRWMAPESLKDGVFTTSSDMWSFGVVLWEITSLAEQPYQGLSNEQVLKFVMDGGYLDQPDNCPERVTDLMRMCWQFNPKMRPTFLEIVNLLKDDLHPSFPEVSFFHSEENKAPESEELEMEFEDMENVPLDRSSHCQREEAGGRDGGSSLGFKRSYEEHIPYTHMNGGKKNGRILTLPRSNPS
SMILES,remaining activity [%]
Cc1ccc(NC2=CC(=O)c3sc(C)nc3C2=O)cc1,92.6
NC(=O)c1ccc(N(C(N)=O)c2c(F)cccc2F)nc1-c1ccc(F)cc1F,104
COc1cc(Nc2c(C#N)cnc3cc(OCCCN4CCN(C)CC4)c(OC)cc23)c(Cl)cc1Cl,69.8
Nc1nc(Nc2ccc(S(N)(=O)=O)cc2)nn1C(=O)c1c(F)cccc1F,94.9
Oc1ccc(Nc2nc(-c3ccc(Cl)cc3)cs2)cc1,88.9
Nc1ncnc2c1cnn2-c1ccccc1,103
CC[n+]1c(/C=C/N(C)c2ccccc2)n(-c2ccccc2)c2ccc(-c3nc4ccccc4s3)cc21,94
CCCC(=O)Oc1ccc2[nH]c(C(=O)c3cc4ccccc4[nH]3)cc2c1,101

# Other studies, line by line
Structure (SMILES),target,assay,setting,quantity,value
COC(=O)[C@@H]1[C@@H](O)[C@@]2(O)c3c(OC)cc(OS(=O)(=O)c4ccc(C)cc4)cc3O[C@@]2(c2ccc(OC)cc2)[C@H]1c1ccccc1,"EIF4A1 (Homo sapiens, UniProt P60842)","RNA clamping, fluorescence polarization","concentration not given, mean of two replicates, added: FAM-labelled poly r(AG)8 RNA",fluorescence polarization change,3 mP
NCCc1ccc(O)c(O)c1,"SLC18A2 (Homo sapiens, UniProt Q05940)",substrate,,Km,1.36 ± 0.1 µM
